Published values collected from several papers.
Lines come from different studies, so protocols differ. Values joined by “and” are separate records of one study, mostly repeats; a detail may differ. ± gives the spread as reported.

With `CCOc1cccc(=O)c2c(C)n(Cc3ccc(Cl)cc3)c(C)c12` the EC50 was 164 ± 110 nM (Plasmodium falciparum; parasite growth).
`COc1c(C)c2c(c(O)c1C/C=C(\C)CCC(=O)O)C(=O)OC2` gave an IC50 of 1740 nM (A204; cell proliferation; muscle cancer).
The GI50 of `Nc1ncc(-c2nc(N3CCOCC3)nc(N3CCOCC3)n2)c(C(F)F)n1` is reported as 276 nM (NCI-H82; 72 h).
For `COc1ccc(-n2nc(C(C)=O)s/c2=N\N=C(/C)c2ccc(NC(C)=O)cc2)cc1`, the viability was 14% (HepG2; 0.312 µM).
`CC(C)[C@H]1NC(=O)[C@H](Cc2ccccc2)NC(=O)CNC(=O)[C@@H](Cc2ccccc2)NC(=O)[C@H](CCC(N)=O)NC(=O)[C@@H](CCCN)NC1=O` has an IC50 of greater than 16 µg/mL (Naegleria fowleri; trophozoites).
Under “pathway fold enrichment”, `Nc1ncnc2c1ncn2[C@@H]1O[C@@H]2COP(=O)(O)O[C@H]3[C@@H](O)[C@H](n4cnc5c(=O)[nH]cnc54)O[C@@H]3COP(=O)(O)O[C@H]2[C@H]1O` is recorded as 5.86 (HFF-1; RNA sequencing, measured: Diseases of glycosylation; downregulated pathway; reference: Zika virus alone).
For `CCCN(CCC)[C@H]1CCc2c(F)ccc(O)c2C1`, the IC50 was 398 nM (Plasmodium falciparum; GB4).
With `CC(C)[C@H]1NC(=O)[C@@H]([C@H](C)O)NC(=O)[C@H](CO)NC(=O)[C@@H](CCCNC(=N)N)NC(=O)CNC(=O)[C@H](Cc2ccccc2)NC(=O)[C@H]([C@@H](C)O)NC1=O` the IC90 was greater than 16 µg/mL (Acanthamoeba castellanii; trophozoites).
For `CC[C@H](C)[C@@H]1NC(=O)[C@@H]2CCCN2C(=O)[C@H](CC(C)C)NC(=O)[C@H](CC(C)C)NC(=O)CNC(=O)[C@@H](NC(=O)[C@@H](NC(=O)[C@H](CC(=O)O)NC(=O)CNC(=O)[C@@H](NC(=O)[C@H](C)NC(=O)CNC(=O)[C@H](CCCCN)NC(=O)[C@H](CC(C)C)NC(=O)[C@H](CC(C)C)NC(=O)[C@H](CCCCN)NC(=O)CNC(=O)[C@@H](NC(=O)[C@@H](N)CC(C)C)C(C)C)C(C)C)C(C)C)CSSC[C@@H](C(=O)O)NC1=O`, “log2 fold change” read -1.96 (RNA-seq, measured: Slc17a9; mouse, traumatic brain injury model, frontal cortex and hippocampus; dose not given; reference: TBI alone).
The inhibition of `c1ccc(C(NCCNC(c2ccccc2)c2ccccc2)c2ccccc2)cc1` is reported as 5% (NMDA receptor, rat, Glycine site; binding; 10 µM, Eurofins selectivity panel).
With `COc1ccccc1C1CN(CCNC(=O)c2nc(C)c[nH]2)Cc2ccccc2O1` (stereo not shown) the EC50 was 873 ± 400 nM (Plasmodium falciparum; parasite growth, SYBR Green; 3D7 wild type; 72 h).
With `COc1cc(CCC[P+](c2ccccc2)(c2ccccc2)c2ccccc2)c(OC)c2c1OCO2.[I-]` the GI50 was -5.96 log M (SR; SRB).
`COc1ccc2c(c1)[nH]c1c(C)nccc12` gave a DNA methylation of 94.2% (DU-145; bisulfite pyrosequencing, measured: RASSF1A promoter CpG site 9; 10 µM, 16 h).
For `CN(C)c1ccc(O)c2c1C[C@H]1C[C@H]3[C@H](N(C)C)C(O)=C(C(N)=O)C(=O)[C@@]3(O)C(O)=C1C2=O`, the IC50 was 794 nM (Plasmodium falciparum; 3D7).
`COc1c(CCC[P+](c2ccccc2)(c2ccccc2)c2ccccc2)cc2c(c1OC)OCO2.[I-]` has a GI50 of -7.58 log M (A498; SRB).
For `CC(=O)c1cc(O)c2ccccc2c1O`, the EC50 was 320 nM (Dengue virus 2; viral replication).
For `CC(C)[C@@H]1NC(=O)[C@@H](CCCCN)NC(=O)[C@H](CCCN)NC(=O)[C@@H](CC(=O)O)NC(=O)[C@H](C)NC(=O)[C@H](Cc2c[nH]c3ccccc23)NC(=O)[C@@H](Cc2c[nH]c3ccccc23)NC1=O`, the IC50 was greater than 16 µg/mL (Naegleria fowleri; trophozoites).
`C#CCN(C)[C@H](C)Cc1ccccc1` — result for “corridor crossing time”: 7.52 s and 5.62 s and 4.27 s and 6.52 s and 7.98 s and 5.33 s and 5.93 s (footprint test; MPTP-induced Parkinson's disease mouse model; 10 mg/kg, mean of three trials).
For `Nc1ccn(C[C@@H](CO)OCP(=O)(O)O)c(=O)n1`, the infection was 108% and 101% (Fowlpox virus; viral infection; CEF; 1.562 µM; reference: untreated).
`CCCCN1[C@@H]2CC[C@H]1C[C@@H](OC(c1ccc(F)cc1)c1ccc(F)cc1)C2` gave an IC50 of 794 nM (Plasmodium falciparum; 3D7).
With `COc1ccccc1N1CCN(Cc2c(NC(C)=O)sc(C)c2C)CC1` the EC50 was 224 ± 86 nM (Plasmodium falciparum; parasite growth, SYBR Green; 3D7 wild type; 72 h).
`O=C1NC(=O)C(C2C3=C(CCCC3=O)Oc3ccc([N+](=O)[O-])cc32)C(=O)N1` (stereo not shown): mRNA level “decreased” (mouse preadipocytes; qPCR, measured: IRS-1; IC20, 14 days, adipogenic induction; reference: untreated cells).
With `COc1ccc(-n2ccnc2SCC(=O)Nc2cccc(C(F)(F)F)c2)c(OC)c1` the EC50 was 163 ± 50 nM (Plasmodium falciparum; parasite growth, SYBR Green; 3D7 wild type; 72 h).
For `COc1cc2nc(N3CCN(C(=O)C4COc5ccccc5O4)CC3)nc(N)c2cc1OC` (stereo not shown), the IC50 was 1260 nM (Plasmodium falciparum; W2).
`Cc1sc(CNCCCNc2cc(=O)c3ccccc3[nH]2)c(I)c1C` has an EC50 of 604 ± 30 nM (Plasmodium falciparum; parasite growth; Dd2).
For `CCN(CC)CCOCCOC(=O)C1(c2ccccc2)CCCC1`, the IC50 was 631 nM (Plasmodium falciparum; W2).
`NC(=O)c1cc[n+](CC2=C(C(=O)O)N3C(=O)[C@@H](NC(=O)[C@@H](c4ccccc4)S(=O)(=O)[O-])[C@H]3SC2)cc1` gave a kinact/KI of 17000 ± 2400 M⁻¹ s⁻¹ (PBP1b Streptococcus pneumoniae; Bocillin-FL competition; live Streptococcus pneumoniae cells; 30 min, together with: Bocillin-FL 600 nM).
`CN1[C@@H]2CC[C@H]1C[C@@H](OC(=O)C(CO)c1ccccc1)C2` (stereo partly shown) has an IC50 of 10000 nM (Plasmodium falciparum; GB4).
With `COc1ccc(-n2ccnc2SCC(=O)Nc2cc(C(F)(F)F)ccc2Cl)c(OC)c1` the EC50 was 274 ± 73 nM (Plasmodium falciparum; parasite growth, SYBR Green; 3D7 DHODH E182D; 72 h).
`CNCCCN1c2ccccc2CCc2ccccc21` gave an IC50 of 5010 nM (Plasmodium falciparum; 7G8).
`CC(C)[C@@H]1NC(=O)[C@@H](CCCNC(=N)N)NC(=O)[C@H]([C@@H](C)O)NC(=O)[C@@H](CCCNC(=N)N)NC(=O)[C@H](Cc2ccccc2)NC(=O)[C@@H](Cc2ccccc2)NC1=O` gave an IC50 of greater than 16 µg/mL (Naegleria fowleri; trophozoites).
For `O=C(NC1CCCCCCC1)c1cc(-c2ccncc2F)c[nH]1`, the IC50 was greater than 64 µg/mL (Vero; 48 h).
`CC(COc1ccccc1)N(CCCl)Cc1ccccc1` (stereo not shown) gave an IC50 of 12600 nM (Plasmodium falciparum; HB3).
`O=C(Nc1cccc(CN2CCN(C(=O)c3cccc(Cl)c3)CC2)c1)c1ccco1.O=C(O)C(F)(F)F` gave an EC50 ratio of 15 (Plasmodium falciparum; parasite growth, SYBR Green; 72 h; reference: 3D7-E182D over 3D7).

Excerpt of the above:
With `CCOc1cccc(=O)c2c(C)n(Cc3ccc(Cl)cc3)c(C)c12` the EC50 was 164 ± 110 nM (Plasmodium falciparum; parasite growth).
`COc1c(C)c2c(c(O)c1C/C=C(\C)CCC(=O)O)C(=O)OC2` gave an IC50 of 1740 nM (A204; cell proliferation; muscle cancer).
The GI50 of `Nc1ncc(-c2nc(N3CCOCC3)nc(N3CCOCC3)n2)c(C(F)F)n1` is reported as 276 nM (NCI-H82; 72 h).
For `COc1ccc(-n2nc(C(C)=O)s/c2=N\N=C(/C)c2ccc(NC(C)=O)cc2)cc1`, the viability was 14% (HepG2; 0.312 µM).
`CC(C)[C@H]1NC(=O)[C@H](Cc2ccccc2)NC(=O)CNC(=O)[C@@H](Cc2ccccc2)NC(=O)[C@H](CCC(N)=O)NC(=O)[C@@H](CCCN)NC1=O` has an IC50 of greater than 16 µg/mL (Naegleria fowleri; trophozoites).
